Measured values of several laboratories.
Each numbered part is a random draw from the data of one study; scales do not carry over between parts. Positions count from the first letter of the parent shown.

Set 1
Target: CCNB2, cyclin fold, Cln2 fusion (human)
Technique: yeast growth competition, sequencing
Matrix: yeast
Notes: weak parent motif
Reference: not given
Reading: higher = stronger binding
Parent: SCAPER docking peptide (human); SNARRSLNFGGST; partner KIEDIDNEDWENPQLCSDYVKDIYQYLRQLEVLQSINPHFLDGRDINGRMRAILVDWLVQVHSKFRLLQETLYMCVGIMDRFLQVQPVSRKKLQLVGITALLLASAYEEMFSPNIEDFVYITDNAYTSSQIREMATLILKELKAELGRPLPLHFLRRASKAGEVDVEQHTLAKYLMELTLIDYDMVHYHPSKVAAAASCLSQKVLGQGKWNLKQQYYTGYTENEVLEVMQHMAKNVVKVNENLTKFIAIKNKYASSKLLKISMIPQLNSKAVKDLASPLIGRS
Substitution	normalised enrichment score
SWARRSLNFGGST [N2W]	-0.117
SNFRRSLNFGGST [A3F]	0.805
SNARRELNFGGST [S6E]	-0.461
SNHRRSLNFGGST [A3H]	0.0866
YNARRSLNFGGST [S1Y]	0.641
SNARRSLNFYGST [G10Y]	0.441
SNARRSLNFGGSY [T13Y]	-0.174
SNARRSKNFGGST [L7K]	0.307
SNARRSVNFGGST [L7V]	-0.0542
SNARSSLNFGGST [R5S]	0.502
SNARRSLNFGGSC [T13C]	0.387
SNARRSLNFGHST [G11H]	-0.0628
SNAARSLNFGGST [R4A]	-0.0232
SNARRSLNFCGST [G10C]	0.3
SNARMSLNFGGST [R5M]	0.262
SNARRSLNFGGSQ [T13Q]	0.0659
GNARRSLNFGGST [S1G]	0.17
SNARRSLNTGGST [F9T]	0.209
SNARRNLNFGGST [S6N]	0.226
SNARRSLGFGGST [N8G]	0.209
NNARRSLNFGGST [S1N]	0.213
SNARVSLNFGGST [R5V]	0.157
SNARRSLNFRGST [G10R]	0.462
INARRSLNFGGST [S1I]	0.239
SNARRSWNFGGST [L7W]	0.238

Set 2
Target: ABI1, truncated, D143A, DHFR fusion (Arabidopsis thaliana)
Technique: DHFR PCA, deep sequencing
Matrix: yeast
Notes: methotrexate growth selection, single substitutions
Added: (+)-ABA 200 µM
Reference: wild-type fitted maximum
Reading: higher = stronger binding
Parent: PYL1, truncated, DHFR fusion (Arabidopsis thaliana); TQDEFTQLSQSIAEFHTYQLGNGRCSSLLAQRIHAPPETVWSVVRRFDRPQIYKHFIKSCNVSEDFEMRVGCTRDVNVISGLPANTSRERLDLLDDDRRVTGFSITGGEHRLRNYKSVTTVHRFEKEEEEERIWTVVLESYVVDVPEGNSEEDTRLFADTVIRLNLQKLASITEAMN
Substitution	relative binding score
L93W	86%
Q7D	97.1%
I79Q	96.8%
V136D	52.2%
Y115E	-27.3%
I57K	-3.11%
P37L	81%
H16L	15.6%
E151K	96.5%
K168N	101%
T1P	97.7%
K126N	106%

Set 3
Target: RNA binding protein fox-1 homolog 2, RRM domain, GST-SBP tag (RBFOX2, Homo sapiens, UniProt O43251-10, residues 100-194)
Technique: RNA Bind-n-Seq
Form: RNA
Matrix: in vitro
Concentration: 365 nM
Notes: natural RNA segment, single round, ends assumed
Reference: no-protein control
Reading: higher = stronger binding
Shared flanks, not repeated: GGGAGUUCUACAGUCCGACGAUC … UGGAAUUCUCGGGUGCCAA
Target sequence (chain): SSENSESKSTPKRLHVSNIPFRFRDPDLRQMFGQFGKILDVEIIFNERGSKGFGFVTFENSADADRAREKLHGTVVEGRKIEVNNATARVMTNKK
Strand	RBNS enrichment (R)
AACAACCUCUAUAUUUUCACUGUAUGUUAUGGCAGAAUUUUAGUCACGUCCAAAACAAAAGAUUAUUCCAGAAGAUACCUCAUCCUAUGCCUGAAAGGCUCCACAGCAUG	3.46
UUAAGCUGCUAAUUGUUGAGAGAGAUUUAAAUUUAUGUUCUGUCUGGUCGCUGCAGAUUCUCAGCAGCACUUUUACUGUAUAUAGAAAUUGAAAUAAAGACCUCAGCUAU	0.336
CCAGAGUAAACAUCCGAUGCUCAGAGUUAGCAUAAUUUGGAGCUAUUCAGGAAUUGCAGAGAAAUGCAUUUUCACAGAAAUCAAGAUGUUAUUUUUGUAUACUAUAUCAC	0.448
ACUUGUUCAUGAUUGUGCUCUGAACUGCAUGGGGAGUGUGGGGUGCUGCCUUGCUCGCUGUUAUAUUAAGUAGAAGGAGUUUUAGGAUAUUCGAGACAGUGCUUCUGGAG	2.92
UGCCAAAUGACCACCCGUCAGGCAGAUUGAGGGCCAUCACUUCAAACAUAGAUUAAAUUUGUUUAGCACUAAACUAUCCCUAGAGUAAAUUUUUAUGCUUGACAAGUUGU	0.321
GCUUCUCGCCCCUCAGUGGUUUCCUCGGCCCUCCUGGGUUUACUCCUUGAGUUUUCCUGCUGCGAUGCAAUGCUUUUCUAAUCUGCAGUGGCUCUUACAAAACUCUGUUC	0.559
CACAUGUUCAUAUAGCAAUGUAAAAACCUACUAAUGAGUAUUUGGUAAUUUCCCAUUAGCAUAAUUUUAUGUUGUACAAGUAAAUUACAAUUCCAUCUCUAAUCUUGGAU	0.481
UUGCCUUCUAGACACUGAAGGCAAAUCUCCUUUGUCCAUUUACCUGGAAACCAGAAUGAUUUUGACAUACAGGAGAGCUGCAGUUGUGAAAGCACCAUCAUCAUAGAGGA	0.229
ACCAUCCGCUGCAUGGUCACAGUAGAGCCCCCGUGACUCGCCUGUCUUUGGGUCACCUGCAUUCCAUAGCAUUGUGCUUGUACUUGUGCUCACACGGUUACCUAGGGUAG	16.1
CCGCCACCCACCUCUCCUGCAGGCUGCGACCUGCAGUGGCCCGUCUCAGGCCCUGCUCACUCCCGGGGCCACCAAACGGGCCCCUCUCUCGGGGGAACCGGACAGCAGCU	0.495
GGUAGGACUGGCUUCUGGCAGGGACAGGGCCUAUCCUAAGUACCUUCACCCAGUAUCACAAAGAUGACUUUGUGGGAGGUACUUAGAAUGGGCUAAGGUGGACAGGCUGU	0.339
AUGGAGUCAAAGGAGACCAUUUUGGAGCUUUAAGAUUUAACUGCCCUGCUGGAUUUCAGACUUGCAUGGGGCCUUUAGCCACUUCGUUUUGGCCAACUUCUCCCACUUGA	0.599

Other studies, line by line
Substance	target	test	system	setting	how to read	endpoint	value
PhoQ, residues 284 288 289 292 302 303 WVSSAF	PhoP, residues 12 14 15 18 19 YHFSH (Escherichia coli, UniProt P23836)	Sort-seq, refers to: YFP reporter	E. coli	PhoQ-PhoP variant library, added: 10 µM Mg2+	reference: high Mg2+ state, higher = stronger signaling	fold induction	1.55

For quick reference, copied from above (set 1):
Substitution	normalised enrichment score
SNARRSLNTGGST [F9T]	0.209
SNARRNLNFGGST [S6N]	0.226
SNARRSLGFGGST [N8G]	0.209
NNARRSLNFGGST [S1N]	0.213
SNARVSLNFGGST [R5V]	0.157
SNARRSLNFRGST [G10R]	0.462
INARRSLNFGGST [S1I]	0.239
